Published values pooled from the literature.
Lines come from different studies, so protocols differ.
Target: Death-associated protein kinase 2 (DAPK2, Homo sapiens, UniProt Q9UIK4)

CN1CC[C@@H](COc2cnc(C#N)cc2-c2ccn3nc(NC(=O)C4CC4)cc3c2)C1 has an inhibition of 1% (enzyme activity, inhibitor; 1 µM).
With COc1c(Cl)cccc1Nc1c(-c2ccncc2C#C[C@@]2(C)CCCN2C(=O)/C=C/CN(C)C)[nH]c2c1C(=O)NCC2 the remaining binding was 92% (binding, competition with immobilised ligand; 3 µM).
CCn1cc(C(=O)O)c(=O)c2c(N)c(F)c(NC3CCCCC3)cc21 gave an inhibition of 11% (kinase activity; 0.1 µM, together with: ATP at Km).
For CC(C)=CC1OC(C)(C)C2C=C3C(=O)C(Cl)=CC(O)C3C3C(O)C4OC4C(=O)C132 (stereo not drawn), the remaining binding was 68% (cell-free assay, competition with immobilised ligand; 10 µM).
For O=C=[N][Ru-4]123([n]4c5ccc(O)cc5c5c6c(c7cc(F)c[n+]1c7c54)C(=O)NC6=O)[S+]1CC[S+]2CC[S+]3CC1 (stereo not drawn), the remaining activity was 8% (enzyme activity; 100 nM, human enzyme, together with: 10 µM ATP; reference: untreated).
With CNC(=O)C1CCN(c2cc(C)c(F)cc2NC(=O)c2ccc(-c3cc(O)ccc3C)c(C)c2)CC1 the remaining binding was 97% (binding, competition with immobilised ligand; 1 µM).
The inhibition of CN1CCN(Cc2ccc(-c3ccc(CO[C@H]4CCC[C@@H]4NC(=O)c4cc(-c5cnn(C)c5)cnc4N)cc3)cc2)CC1 is reported as 12% (enzyme activity, inhibitor; 0.1 µM).
For NC(=O)C[C@H]1CCc2sc3ncnc(O[C@H]4CC[C@H](N5CCOCC5)CC4)c3c21, the inhibition was -3% (enzyme activity, inhibitor; 10 µM).
CNC(=O)C[C@H](Cc1ccc(C#N)cc1)NC(=O)c1cc(-c2ccc(CN[C@H](C)c3ccc(C)cc3)o2)ccc1Cl — result for “activity vs control”: 117% (enzyme activity, inhibitor; 1 µM).
With Nc1ncc(-c2cc(-c3cnn(CC(F)(F)F)c3)ncc2F)nc1C(=O)NC1CNCC(F)C1 (stereo not drawn) the remaining activity was 93.5% (enzyme activity; 1 µM; reference: DMSO control).
COc1cc(Nc2nccc(-c3cnn4nc(OC)ccc34)n2)cc(C(F)(F)F)c1 gave a remaining binding of 92% (binding, competition with immobilised ligand; 1 µM).
For Nc1ncc2c(n1)-c1c([nH]c3ccc(C4=CCOCC4)cc13)CCC2, the remaining binding was 100% (binding, competition with immobilised ligand; 1 µM).

Some of these lines once more:
The inhibition of CN1CCN(Cc2ccc(-c3ccc(CO[C@H]4CCC[C@@H]4NC(=O)c4cc(-c5cnn(C)c5)cnc4N)cc3)cc2)CC1 is reported as 12% (enzyme activity, inhibitor; 0.1 µM).
For NC(=O)C[C@H]1CCc2sc3ncnc(O[C@H]4CC[C@H](N5CCOCC5)CC4)c3c21, the inhibition was -3% (enzyme activity, inhibitor; 10 µM).
